Experimental data gathered from unrelated publications.
Protocols differ between the studies behind these lines. “And” joins repeats or separate records; there may be more than shown. ± marks the error that the study gave. In brackets after ≈: the same amount, converted by molar mass.

`CCCC/C=C/C(=O)N[C@@H](Cc1csc2ccccc12)C(=O)N[C@H]1COC(=O)[C@@H]2C[C@@H](C)CN2C(=O)[C@H](C)NC(=O)[C@@H]2CCCCN2C(=O)[C@@H]2CCCN2C1=O`: “viral RNA release” 0.037 and 0.028 and 0.039 (human coronavirus OC43; Huh-7; concentration not given, unit not given; relative to: DMSO).
For `CCc1nn(C)c2nc(-c3ccc(C(=O)O)cc3)nc(NCc3ccccc3)c12`, the parasite number was 26.7% and 42.2% and 38.4% and 34.2% (Cryptosporidium parvum; HCT-8; 9 x EC90, 24 h; relative to: DMSO control).
The EC50 of `CCc1cc(CCN)nc(-c2nc(=O)c3ccc(F)cc3s2)c1` is reported as > 100 µM (Acinetobacter baumannii; cell growth, inhibitor; NCTC 13424 XDR; 5% CO2).
For `CC[C@H](C)CCCCC(=O)N[C@@H](CCN)C(=O)N[C@H](C(=O)N[C@@H](CCN)C(=O)N[C@H]1CCNC(=O)[C@H]([C@@H](C)O)NC(=O)[C@H](CCN)NC(=O)[C@H](CCN)NC(=O)[C@H](CC(C)C)NC(=O)[C@@H](CC(C)C)NC(=O)[C@H](CCN)NC1=O)[C@@H](C)O`, “MIC fold change” read 1.63 (Escherichia coli; daily serial passaging; ATCC 8739; highest sub-MIC, 27 days; relative to: initial MIC).
`C[N+]1=C2C(c3ccc(Cl)cc3)=[N+]([O-])c3ccccc3N2CCC1` gave an MIC90 of 8 µg/mL (Bacteroides fragilis).
The MBEC of `Oc1c(Br)cc(Br)c2nc3ccccc3nc12` is reported as > 200 µM (Enterococcus faecalis; Calgary biofilm device; OG1RF).
The biofilm dispersal of `C[C@@H]1NC(=O)[C@H](C)NC(=O)[C@@H](NC(=O)[C@@H]2CCCN2C(=O)[C@H](CC(N)=O)NC(=O)[C@H](Cc2ccc(O)cc2)NC(=O)[C@@H](N)CCCCN)CSC(=O)[C@H](Cc2ccccc2)NC(=O)[C@H](Cc2ccc(O)cc2)NC1=O` is reported as 11% (Staphylococcus epidermidis; safranin staining; RP62A; 10 µM, 37 °C; relative to: DMSO control).
For `NCCO.O=C(O)C(Cl)Cl`, the inhibition was 0% (Amaranthus retroflexus; herbicidal activity; 15 mg/mL, 21 days, post-emergence greenhouse).
For `Cc1cc(C(=O)Nc2nc3cccc(C)c3n2[C@H]2CCCCN(C(=O)/C=C/CN(C)C)C2)ccn1`, the survival was 185% and 206% and 187% and 162% (Trypanosoma brucei brucei; 2T1 CLK1 overexpressing; 1.25 µM, compound pretreated; relative to: maximum).
The inhibition of `CCCN1C(=O)C(CCC)(C(=O)OCC)Oc2cc(F)ccc21` (centres unmarked) is reported as 60.9 ± 2.37% (Amaranthus retroflexus; fresh weight, greenhouse postemergence; postemergence, 150 g ai/ha, 21 days).
`CC(C)[C@H]1NC(=O)[C@H](Cc2ccccc2)NC(=O)[C@@H](C(C)C)NC(=O)[C@@H](C)NC(=O)[C@H](CO)NC(=O)[C@@H](Cc2c(-c3ccc(-c4ccc5ccccc5c4)cc3)[nH]c3ccccc23)NC(=O)[C@@H](CO)NC1=O` has an MIC90 of > 50 µM (Vibrio vulnificus; broth dilution).
For `COc1ccc(Cn2c3cc(=O)n(Cc4cccc(Cl)n4)c(C)c3c(=O)n2-c2ccccn2)cc1`, “normalized viral replication” read 0 (human respiratory syncytial virus; recombinant reporter virus; concentration not given, scale 0 to 100, together with: cytidine 3.7 µM).
With `CCOC(=O)C1(Cc2ccc(F)cc2)Oc2cc(F)ccc2N(Cc2ccc(F)cc2)C1=O` (centres unmarked) the inhibition was 50.5 ± 2.11% (Amaranthus retroflexus; fresh weight, greenhouse postemergence; postemergence, 150 g ai/ha, 21 days).
With `NCCC[C@@H]1NC(=O)[C@@H](CCCN)NC(=O)[C@H](Cc2ccccc2)NC(=O)[C@@H](Cc2ccc(F)c(F)c2)NC(=O)[C@H](Cc2ccccc2)NC(=O)[C@@H](CCCN)NC1=O` the IC90 was > 20 µM (Balamuthia mandrillaris; parasite growth, ATP luminescence).
`CC[C@H](C)[C@H](NC(=O)[C@H](Cc1ccccc1)NC(=O)[C@H](CCCCN)NC(=O)[C@H](CCCCN)NC(=O)CNC(=O)[C@H](C)NC(=O)[C@H](CC(N)=O)NC(=O)[C@H](CCCCN)NC(=O)[C@H](Cc1ccccc1)NC(=O)[C@H](CC(N)=O)NC(=O)[C@H](CCC(=O)O)NC(=O)[C@H](Cc1c[nH]c2ccccc12)NC(=O)[C@H](CC(C)C)NC(=O)[C@@H](N)CO)C(=O)N[C@@H](CC(C)C)C(=O)N[C@@H](CC(N)=O)C(=O)N[C@H](C(=O)N[C@@H](CC(C)C)C(=O)N[C@@H](CC(=O)O)C(=O)N[C@@H](CCCCN)C(N)=O)[C@@H](C)CC`: “geometric mean MIC” 13.5 µM (all tested microorganisms).
`CCOC(=O)C1(Cc2ccc(C(F)(F)F)cc2)Oc2cc(F)ccc2N(Cc2ccc(C(F)(F)F)cc2)C1=O` (centres unmarked) has an inhibition of 40.4 ± 3.36% (Amaranthus retroflexus; fresh weight, greenhouse postemergence; postemergence, 150 g ai/ha, 21 days).
`CCCCCCCCCCCCCC(=O)N[C@H]1C(=O)N[C@@H](CN)C(=O)N[C@@H](CO)C(=O)N[C@@H](Cc2ccc(O)cc2)C(=O)O[C@H]1C` has an MIC of 2 µg/mL (≈ 3.09 µM) (Staphylococcus aureus; SH1000; no lipid).
The MIC50 of `[O-][N+]1=C(Cc2ccccc2)C2=NCCCN2c2ccccc21` is reported as 1 µg/mL (≈ 3.43 µM) (Bacteroides fragilis; microbial growth).
With `CC(C)[C@H]1NC(=O)[C@H](Cc2ccc(O)cc2)NC(=O)[C@@H](C(C)C)NC(=O)[C@@H](C)NC(=O)[C@H](CO)NC(=O)[C@@H](Cc2c(-c3ccc(-c4ccc5ccccc5c4)cc3)[nH]c3ccccc23)NC(=O)[C@@H](CO)NC1=O` the MIC90 was > 50 µM (Vibrio vulnificus; broth dilution).
`CCOC(=O)C1(Cc2ccccc2F)Oc2cc(F)ccc2N(Cc2ccccc2F)C1=O` (centres unmarked) has an inhibition of 44.6 ± 4.85% (Amaranthus retroflexus; fresh weight, greenhouse postemergence; postemergence, 150 g ai/ha, 21 days).
The MIC90 of `CC(C)[C@H]1NC(=O)[C@H](Cc2ccccc2)NC(=O)[C@@H](C(C)C)NC(=O)[C@@H](C)NC(=O)[C@H](C)NC(=O)[C@@H](Cc2c(-c3ccc(-c4ccc5ccccc5c4)cc3)[nH]c3ccccc23)NC(=O)[C@@H](CO)NC1=O` is reported as > 50 µM (Vibrio vulnificus; broth dilution).
With `O=[N+]([O-])c1ccc(C2=[N+]([O-])c3ccccc3N3CCCN=C23)cc1` the MIC50 was ≤ 0.06 µg/mL (Bacteroides fragilis; microbial growth).
With `CC(C)CS(=O)(=O)N[C@H]1CC[C@H](Nc2ncc3c(N4CCOCC4)n[nH]c3n2)CC1` the EC50 was 0.0114 ± 0.003 µM (Leishmania donovani; cell growth; promastigotes, LdBOB; life-cycle stage comparison).
`CN(C(=O)c1ccn2ncc(-c3ccc(C(N)=O)cc3)c2c1)c1ccc(C#N)cn1`: “faecal Nluc luminescence” 63 a.u. and 18 a.u. and 230 a.u. and 82 a.u. and 55 a.u. (Cryptosporidium parvum; UGA1 Nluc, IFN-gamma knockout C57BL/6 mice, faeces; oral, 10 mg/kg daily, 264 h post infection, treatment days 3-9; higher means more parasites).
With `[O-][N+]1=C(c2ccc(Cl)cc2)C2=NCCCN2c2ccccc21` the MIC90 was 2 µg/mL (Bacteroides fragilis).
`CCOC(=O)C1(Cc2ccc(C#N)cc2F)Oc2cc(F)ccc2N(Cc2ccc(C#N)cc2F)C1=O` (centres unmarked) gave an inhibition of 67.6 ± 3.92% (Amaranthus retroflexus; fresh weight, greenhouse postemergence; postemergence, 150 g ai/ha, 21 days).
With `CC[C@H](C)[C@H](NC(=O)[C@H](CC(C)C)NC(=O)[C@H](CC(C)C)NC(=O)[C@H](CC(=O)O)NC(=O)[C@@H](NC(=O)[C@H](CCC(=O)O)NC(=O)[C@H](CCCCN)NC(=O)[C@H](Cc1ccc(O)cc1)NC(=O)[C@H](CCCCN)NC(=O)[C@H](Cc1c[nH]cn1)NC(=O)CNC(=O)CN)[C@@H](C)O)C(=O)N[C@@H](CC(C)C)C(=O)N[C@@H](Cc1ccccc1)C(=O)N[C@@H](CCCCN)C(=O)N[C@@H](CC(=O)O)C(=O)N[C@@H](CC(=O)O)C(=O)N[C@@H](Cc1ccc(O)cc1)C(=O)N[C@@H](Cc1ccccc1)C(=O)N[C@@H](C)C(=O)N[C@@H](CCCCN)C(=O)N[C@@H](CCCCN)C(=O)N[C@@H](CC(N)=O)C(=O)N[C@@H](CCC(=O)O)C(=O)N[C@@H](CCC(=O)O)C(=O)N[C@@H](CCCNC(=N)N)C(=O)N[C@@H](CCCCN)C(N)=O` the selectivity index was > 67 (hepatitis C virus; Huh-7 ET replicon; relative to: TC50 over IC50).
For `FC(F)(F)c1cccc(CNc2nc(NC3CCN(Cc4ccccc4)CC3)c3nc[nH]c3n2)c1`, “mRNA fold change” read 1.15 (Cryptococcus neoformans; RNA-seq, measured: PLC2 (CNAG_02968); 48 µg/mL, 3 h; relative to: untreated).
For `COc1ccc(C2=[N+]([O-])c3ccccc3N3CCN=C23)cc1`, the MIC50 was ≤ 0.06 µg/mL (Bacteroides fragilis; microbial growth).

Some of these lines once more:
For `COc1ccc(Cn2c3cc(=O)n(Cc4cccc(Cl)n4)c(C)c3c(=O)n2-c2ccccn2)cc1`, “normalized viral replication” read 0 (human respiratory syncytial virus; recombinant reporter virus; concentration not given, scale 0 to 100, together with: cytidine 3.7 µM).
With `CCOC(=O)C1(Cc2ccc(F)cc2)Oc2cc(F)ccc2N(Cc2ccc(F)cc2)C1=O` (centres unmarked) the inhibition was 50.5 ± 2.11% (Amaranthus retroflexus; fresh weight, greenhouse postemergence; postemergence, 150 g ai/ha, 21 days).
With `NCCC[C@@H]1NC(=O)[C@@H](CCCN)NC(=O)[C@H](Cc2ccccc2)NC(=O)[C@@H](Cc2ccc(F)c(F)c2)NC(=O)[C@H](Cc2ccccc2)NC(=O)[C@@H](CCCN)NC1=O` the IC90 was > 20 µM (Balamuthia mandrillaris; parasite growth, ATP luminescence).
`CC[C@H](C)[C@H](NC(=O)[C@H](Cc1ccccc1)NC(=O)[C@H](CCCCN)NC(=O)[C@H](CCCCN)NC(=O)CNC(=O)[C@H](C)NC(=O)[C@H](CC(N)=O)NC(=O)[C@H](CCCCN)NC(=O)[C@H](Cc1ccccc1)NC(=O)[C@H](CC(N)=O)NC(=O)[C@H](CCC(=O)O)NC(=O)[C@H](Cc1c[nH]c2ccccc12)NC(=O)[C@H](CC(C)C)NC(=O)[C@@H](N)CO)C(=O)N[C@@H](CC(C)C)C(=O)N[C@@H](CC(N)=O)C(=O)N[C@H](C(=O)N[C@@H](CC(C)C)C(=O)N[C@@H](CC(=O)O)C(=O)N[C@@H](CCCCN)C(N)=O)[C@@H](C)CC`: “geometric mean MIC” 13.5 µM (all tested microorganisms).
